Experimental data of several laboratories.
A part holds a random share of what one study measured.

Set 1
Target: Sal-like protein 4, full length isoform B (SALL4, Homo sapiens, UniProt Q9UJQ4-2, residues 1-616)
Technique: universal PBM
Molecule type: double-stranded DNA, one strand shown
Sample: in vitro
Tested at: not given
Notes: 8-mer, flanks averaged, mean of replicates
Reading: higher = stronger binding
Strand | E-score
ACTCCTAG | -0.116
GTACGCTA | 0.00892
AGCTACTG | -0.138
GCTCCCGA | -0.223
TGTTCAAA | 0.0752
AAACTCCA | 0.12
CGGTTAGA | -0.159
CCGGGCCC | -0.349
ACGGCCAT | -0.167
CCGCGCGG | -0.213
ATACTCTA | 0.222
AACTATAC | 0.268
AAGTGAAT | 0.2
GCATCGAA | -0.0196
CGCCTGTC | -0.275
GCCAGAGA | -0.153
AAAACAAG | 0.256
AAAGGCCA | -0.149
ATCCCTTA | 0.105
CTTAGACC | -0.0249
CATGGCGA | -0.216

Set 2
Target: RNA binding protein fox-1 homolog 2, RRM domain, GST-SBP tag (RBFOX2, Homo sapiens, UniProt O43251-10, residues 100-194)
Technique: RNA Bind-n-Seq
Molecule type: RNA
Sample: in vitro
Tested at: 365 nM
Notes: natural RNA segment, single round, ends assumed
Baseline: no-protein control
Reading: higher = stronger binding
Shared flanks, not repeated: GGGAGUUCUACAGUCCGACGAUC … UGGAAUUCUCGGGUGCCAA
Target sequence (chain): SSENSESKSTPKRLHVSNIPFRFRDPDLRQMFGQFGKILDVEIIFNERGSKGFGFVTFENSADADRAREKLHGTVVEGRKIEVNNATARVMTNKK
Strand | RBNS enrichment (R)
UUGAGGGACGCACUGUGAAGAAUGAGAAGGGAAAAGCAAGAUUAUCCUUGUGAAAUUCUGCUGAUUGUGCCCUACCCUUUGCACCUGACUUUUCCUAGUUGUCCUGGUGC | 1.12
AGUUCACUUUGGAUCCUUAUUUUGUAUGACUUCUGCUGAAGGACAGAACAUUGCCUUCCUCGUGCAGAGCUGGGGCUGCCAGCCUGAGCGGAGGCUCGGCCGUGGGCCGG | 1.39
UCGUCUUUUAUUUUCUUGUGGCAUUAUUAGGCAGGUAAGCUUGAUGUAGACCAUUGACUGACCCCAGUCAAAGAUAGGUCCUAGUGAUAUAAGAACACUAGCCCAAAAGG | 0.364
GCUUAGCUGGACUUAGAUCUUCGGUGGCCUCAUGUAAACGUGGCAGCCAGCCUCUUCUAGAACCCUAGCCCAGGGACUGGAGCAGGAAAGGGACCUUCAAAGUGAAGACU | 0.313
UCCUUGUGAAGAUGAUAUACUAUUUUUGUUAAGCGUGUCUGUAUUUAUGUGUGAGGAGCUGCUGGCUUGCUGUGCGCGUGCCCGUGGAGAGCUGGUGCCCAGAGACUGAC | 1.37
UUAACCUACACAUAGUCUAUACAUAGAUGCAUAUUUUACCCCCAGCUGGCUAGAGAUUUAUUUGUUGUAAAUGCUGUAUAGAUUUGGUUUUCCUUUCUUUACUUACCCUG | 0.746
UGCUUGAGUAGGACCAUUUAAACACCUAUUAUGCUAUUCUUGAGAUGGGAUUUUUCAAAGCGGCCAACACUUCACUAAUGUUUCAAAUCAAAACCUUGAGGCUAAUAUUA | 2.06
CUUCCUUCAUCCCAUAUGUAGGUAGCCUUGCUUGACAAAUGUUUCUUCUAACUCUCCUUCUUCUGAAUUGUGCAGAGACUCUGUUAACUUCCCUUUUUGCACUUAGAUAA | 0.34

Set 3
Target: Interferon regulatory factor 7, full length, phosphomimetic (IRF7, Homo sapiens, UniProt Q92985, residues 1-503, S101K/S471D/S472D/S475D/S476D/S477D/S483D/S484D/S487D)
Technique: protein-binding microarray
Molecule type: double-stranded DNA, one strand shown
Sample: in vitro
Tested at: 250 nM
Notes: 60-bp whole probe
Together with: salmon DNA 0.4 mg/ml
Baseline: random background probes
Reading: higher = stronger binding
Shared flanks, not repeated: GCCTAGCAC … GTCTTGATTCGCTTGACGCTGCTG
Target sequence (chain): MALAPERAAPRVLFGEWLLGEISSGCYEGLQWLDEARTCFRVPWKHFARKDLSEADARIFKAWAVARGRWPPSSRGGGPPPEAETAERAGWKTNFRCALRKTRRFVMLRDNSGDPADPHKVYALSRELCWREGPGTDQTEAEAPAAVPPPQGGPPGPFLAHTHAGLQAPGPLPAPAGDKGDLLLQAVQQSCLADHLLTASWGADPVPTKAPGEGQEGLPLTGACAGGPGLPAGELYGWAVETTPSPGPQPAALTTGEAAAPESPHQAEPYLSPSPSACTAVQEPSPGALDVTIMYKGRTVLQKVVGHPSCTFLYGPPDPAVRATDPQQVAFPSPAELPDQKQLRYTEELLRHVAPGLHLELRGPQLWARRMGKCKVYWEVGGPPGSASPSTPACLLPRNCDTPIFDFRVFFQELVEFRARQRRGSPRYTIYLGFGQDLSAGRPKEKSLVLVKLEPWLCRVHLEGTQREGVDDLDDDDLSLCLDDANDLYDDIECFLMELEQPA
Strand | log fluorescence [z-score]
TCATTTCTCCTTTCGGAACTGTGCTAG | 2.88
TTAGAACTGGGGAGTGGATTAGTGCTA | -0.527
TTAGATTTCCGGTTTCGATTAGTGCTA | 9.58
TTGCCAATGCTTCTGGTCTTGTGCTAG | -0.486
CTCTAAGACACAAGATCAGAGTGCTAG | -0.0389
GACGAACTGAGTAGCGAGACGTGCTAG | -0.363
TCAATTTCCACTTTGACACTGTGCTAG | 2.39
TCAAGTTTTCTTTTCATACTGTGCTAG | 3.27
GACGGTTTCGGATATCGGGACGTGCTA | 6.09
AACGGTATCGACTATCGGGACGTGCTA | 0.102
TCAGGTCTCTAACTCAAACTGTGCTAG | 0.37
GACGGGTTCGACTATCGGGACGTGCTA | 0.209
TTAGGGTTCGGACTGGGTTAGTGCTAG | 0.2
GTCGGTCTCGGTCTCGGGACGTGCTAG | 1.51
TGTTTTTGCTTTCTTTATGTGTGCTAG | 3.26
GACCATTTCAGTATCGAGACGTGCTAG | 1.47
TCACTAATGTTTTTTAAACTGTGCTAG | 0.139
GACGGACTGTTTTTCCTGACGTGCTAG | 0.252
GACGGACTGCTACTGTTGACGTGCTAG | -0.641

Set 4
Target: Prothrombin, mature alpha-thrombin (F2, Homo sapiens, UniProt P00734)
Technique: aptamer microarray, sandwich
Molecule type: DNA with 2'F-ANA
Sample: in vitro
Tested at: 200 nM
Notes: whole 15-mer aptamer, many near background
Together with: Cy3 exosite-II aptamer, 400 nM
Reading: higher = stronger binding
Strand: GGTTGGTGTGGTTGG
Modification | mean fluorescence intensity [a.u.]
2'F-ANA at 1 2 3 4 7 9 10 11 14 15 | 49.1
2'F-ANA at 2 5 6 8 10 11 13 | 113
2'F-ANA at 2 3 5 9 10 11 12 | 63
2'F-ANA at 1 4 8 9 10 11 12 13 | 54.4
2'F-ANA at 1 2 3 5 6 7 12 13 14 | 49.9
2'F-ANA at 1 2 3 5 6 7 8 9 11 12 | 124
2'F-ANA at 3 4 6 8 9 11 12 13 | 598
2'F-ANA at 5 6 12 15 | 144
2'F-ANA at 1 3 4 5 8 9 14 | 45.2
2'F-ANA at 1 4 7 8 14 15 | 58.4
2'F-ANA at 1 4 5 6 7 8 9 11 12 13 15 | 63.9
2'F-ANA at 3 6 8 9 11 13 14 15 | 426
2'F-ANA at 1 2 3 6 7 9 12 | 297
2'F-ANA at 2 3 5 11 13 14 | 60.2
2'F-ANA at 8 12 13 14 15 | 259
2'F-ANA at 5 6 14 | 43.7
2'F-ANA at 2 6 7 9 10 12 13 14 15 | 83.8
2'F-ANA at 1 2 4 5 7 8 11 12 15 | 77.2
2'F-ANA at 2 11 13 14 | 123
2'F-ANA at 2 3 4 6 9 10 12 13 14 | 157
2'F-ANA at 6 7 8 9 11 12 13 15 | 564
2'F-ANA at 4 5 6 7 8 10 11 12 13 | 48.7
2'F-ANA at 1 7 9 11 12 13 14 | 62.9
2'F-ANA at 1 2 3 4 8 12 13 14 | 82
2'F-ANA at 3 7 8 10 11 15 | 539

Excerpt of the above (set 3):
Strand | log fluorescence [z-score]
TCAGGTCTCTAACTCAAACTGTGCTAG | 0.37
GACGGGTTCGACTATCGGGACGTGCTA | 0.209
TTAGGGTTCGGACTGGGTTAGTGCTAG | 0.2
GTCGGTCTCGGTCTCGGGACGTGCTAG | 1.51
TGTTTTTGCTTTCTTTATGTGTGCTAG | 3.26
GACCATTTCAGTATCGAGACGTGCTAG | 1.47
TCACTAATGTTTTTTAAACTGTGCTAG | 0.139
GACGGACTGTTTTTCCTGACGTGCTAG | 0.252
